Results of several laboratories.
rep main protease: Replicase polyprotein 1ab, main protease (rep, Severe acute respiratory syndrome coronavirus 2, UniProt P0DTD1)

Compound = O=C(O[C@@H]1Cc2c(O)cc(O)cc2O[C@@H]1c1cc(O)c(O)c(O)c1)c1cc(O)c(O)c(O)c1; target or system = Severe acute respiratory syndrome coronavirus 2; assay = cytopathic effect; test system = Vero C1008; setting = 12.5 µM; measurement = inhibition; result = 0%
Compound = CC(=O)c1cccc(NC(=O)c2cc3c(=O)n4ccccc4nc3n2C)c1; target or system = Severe acute respiratory syndrome coronavirus 2; assay = viral replication, inhibitor, qPCR; test system = Vero C1008; measurement = EC90; result = 2.5 µM
Compound = Nc1ncnc2c([C@@H]3N[C@H](CO)[C@@H](O)[C@H]3O)c[nH]c12; target or system = Marburg virus; assay = viral replication; test system = HeLa, Musoke; setting = 3.1 µM; measurement = inhibition; result = 42%
Compound = CCc1ccc(NC(=O)c2cc3c(=O)n4ccccc4nc3n2C)cc1; target or system = Severe acute respiratory syndrome coronavirus 2; assay = viral replication, inhibitor, qPCR; test system = Vero C1008; setting = 1 µM; measurement = inhibition; result = 94%
Compound = Cn1cnc(Cn2c(=O)[nH]/c(=N\c3cc4cn(C)nc4cc3Cl)n(Cc3cc(F)c(F)cc3F)c2=O)n1; target or system = Severe acute respiratory syndrome coronavirus 2; assay = viral replication; test system = Vero C1008; setting = 51.44 nM; measurement = inhibition; result = 15%
Compound = CC(C)=CCc1c(O)ccc(C(=O)/C=C/c2ccc(O)cc2)c1O; target or system = Severe acute respiratory syndrome coronavirus 2; assay = cytopathic effect, inhibitor; test system = Vero C1008; setting = 1.562 µM; measurement = inhibition; result = 0%
Compound = Cn1cnc(Cn2c(=O)[nH]/c(=N\c3cc4cn(C)nc4cc3Cl)n(Cc3cc(F)c(F)cc3F)c2=O)n1; test system = human, mild renal impairment; setting = oral, 375 mg; measurement = dry mouth TEAE, Severe severity; result = 0%
Compound = Cc1ccc(NC(=O)c2cc3c(=O)n4cccc(C)c4nc3n2C)cc1Cl; target or system = Severe acute respiratory syndrome coronavirus 2; assay = viral replication, inhibitor, qPCR; test system = Vero C1008; setting = 1 µM; measurement = inhibition; result = 94.4%
Compound = O=C(O)[C@H]1O[C@@H](Oc2cc(O)c3c(=O)cc(-c4ccc(O)cc4)oc3c2)[C@H](O)[C@@H](O)[C@@H]1O; target or system = rep main protease; assay = reporter gene (mKate2), inhibitor; setting = 20 µM; measurement = inhibition; result = -0.977%
Compound = O=C(Cc1cccnc1)N1CCC[C@H]([C@H]2CCN(C(=O)C3=CO[C@H]4C=CC(F)=CC4=C3)C2)C1; target or system = rep main protease; assay = enzyme activity, inhibitor; setting = 5 µM, run 2; measurement = inhibition; result = 15.4%
Compound = NC(=O)c1ncn([C@@H]2O[C@H](CO)[C@@H](O)[C@H]2O)n1; target or system = Severe acute respiratory syndrome coronavirus 2; assay = viral replication, inhibitor; test system = Vero; setting = 20 µM; measurement = inhibition; result = 12%
Compound = O=C(/C=C/c1ccc(O)c(O)c1/C=C/c1ccc(O)c(O)c1)O[C@H](Cc1ccc(O)c(O)c1)C(=O)O; target or system = Severe acute respiratory syndrome coronavirus 2; assay = cytopathic effect, inhibitor; test system = Vero C1008; setting = 50 µM; measurement = inhibition; result = 0%
Compound = Cn1c(C(=O)Nc2ccc3c(c2)OCCO3)cc2c(=O)n3ccccc3nc21; target or system = Severe acute respiratory syndrome coronavirus 2; assay = viral replication, inhibitor, qPCR; test system = Vero C1008; setting = 10 µM; measurement = inhibition; result = 96.4%
Compound = COc1ncc(-c2cn([C@@H]3O[C@](F)(CO[P@@](=O)(N[C@@H](C)C(=O)OC(C)C)Oc4ccccc4)[C@@H](OC(=O)C(C)C)[C@H]3OC(=O)C(C)C)cn2)c(OC)n1; target or system = Severe acute respiratory syndrome coronavirus 2; assay = viral replication, inhibitor; test system = A549-ACE2; setting = 24 h; measurement = IC50; result = > 100 µM
Compound = CCC(CC)COC(=O)[C@H](C)N[P@](=O)(OC[C@H]1O[C@@](C#N)(c2ccc3c(N)ncnn23)[C@H](O)[C@@H]1O)Oc1ccccc1; target or system = Severe acute respiratory syndrome coronavirus 2; assay = viral replication, inhibitor, qPCR; test system = Vero C1008; measurement = EC90; result = 0.0835 µM
Compound = CCOc1nc(N)ncc1-c1cn([C@@H]2O[C@](F)(CO[P@@](=O)(N[C@@H](C)C(=O)OC(C)C)Oc3ccccc3)[C@@H](OC(=O)C(C)C)[C@H]2OC(=O)C(C)C)cn1; target or system = Severe acute respiratory syndrome coronavirus 2; assay = viral replication, inhibitor; test system = A549-ACE2; setting = 24 h; measurement = IC50; result = 11.6 µM
Compound = CC[C@H](C)[C@H](NC(=O)[C@H](CC(C)C)NC(=O)[C@H](Cc1c[nH]c2ccccc12)NC(=O)[C@H](CCC(N)=O)NC(=O)[C@@H](NC(=O)[C@H](Cc1ccccc1)NC(=O)[C@H](C)NC(=O)[C@H](CCCCNC(=O)COCCOCCNC(=O)COCCOCCNC(=O)CC[C@H](NC(=O)CCCCCCCCCCCCCCCCCCC(=O)O)C(=O)O)NC(=O)[C@H](CCC(N)=O)NC(=O)[C@H](C)NC(=O)[C@@H](NC(=O)[C@H](CCCCN)NC(=O)[C@H](CC(=O)O)NC(=O)[C@H](CC(C)C)NC(=O)C(C)(C)NC(=O)[C@@H](NC(=O)[C@H](CO)NC(=O)[C@H](Cc1ccc(O)cc1)NC(=O)[C@H](CC(=O)O)NC(=O)[C@H](CO)NC(=O)[C@@H](NC(=O)[C@H](Cc1ccccc1)NC(=O)[C@@H](NC(=O)CNC(=O)[C@H](CCC(=O)O)NC(=O)C(C)(C)NC(=O)[C@@H](N)Cc1ccc(O)cc1)[C@@H](C)O)[C@@H](C)O)[C@@H](C)CC)[C@@H](C)CC)C(C)C)C(=O)N[C@@H](C)C(=O)NCC(=O)NCC(=O)N1CCC[C@H]1C(=O)N[C@@H](CO)C(=O)N[C@@H](CO)C(=O)NCC(=O)N[C@@H](C)C(=O)N1CCC[C@H]1C(=O)N1CCC[C@H]1C(=O)N1CCC[C@H]1C(=O)N[C@@H](CO)C(N)=O; test system = healthy human; setting = 0.5 mg, single ascending dose; measurement = severe hypoglycaemia; result = 0%
Compound = COc1ncc(-c2cn([C@@H]3O[C@](F)(CO[P@@](=O)(N[C@@H](C)C(=O)OC(C)C)Oc4ccccc4)[C@@H](O)[C@H]3O)cn2)c(OC)n1; target or system = Severe acute respiratory syndrome coronavirus 2; assay = viral replication, inhibitor; test system = A549-ACE2; setting = 24 h; measurement = IC50; result = > 100 µM
Compound = CNC(=O)[C@@H](NC(=O)[C@H](CC(C)C)[C@H](O)C(=O)NO)C(C)(C)C; target or system = C2C12; setting = 10 µM, added: WB venom; how to read = reference: venom alone; measurement = viability difference; result = 9.03%
Compound = COc1nc(N)ncc1-c1cn([C@@H]2O[C@](F)(COC(=O)C(C)C)[C@@H](OC(=O)C(C)C)[C@H]2OC(=O)C(C)C)cn1; target or system = Severe acute respiratory syndrome coronavirus 2; assay = viral replication, inhibitor; test system = A549-ACE2; setting = 24 h; measurement = IC50; result = 28.5 µM
Compound = Cc1ccc(-c2ccc3c(ccc4sc5c(c43)NC[C@@H](C)NC5=O)n2)cn1; target or system = rep main protease; assay = reporter gene (Gaussia luciferase), inhibitor; setting = 20 µM; measurement = inhibition; result = 1.73%
Compound = CC(C)C(=O)OC[C@@]1(F)O[C@@H](n2cnc(-c3cnc[nH]c3=O)c2)[C@H](OC(=O)C(C)C)[C@@H]1OC(=O)C(C)C; target or system = Severe acute respiratory syndrome coronavirus 2; assay = viral replication, inhibitor; test system = A549-ACE2; setting = 24 h; measurement = IC50; result = > 100 µM
Compound = C=C[C@@](C)(/C=C/c1ccc(O)cc1)CCC=C(C)C; target or system = Severe acute respiratory syndrome coronavirus 2; assay = cytopathic effect, inhibitor; test system = Vero C1008; setting = 3.125 µM; measurement = inhibition; result = 0%

Excerpt of the above:
Compound = CCc1ccc(NC(=O)c2cc3c(=O)n4ccccc4nc3n2C)cc1; target or system = Severe acute respiratory syndrome coronavirus 2; assay = viral replication, inhibitor, qPCR; test system = Vero C1008; setting = 1 µM; measurement = inhibition; result = 94%
